# Measurements of several laboratories.
# Each line is one published result; not all experiments were run side by side. ± gives the spread as reported.
SMILES,cell line,assay,setting,CC50 [µM]
COc1ccc(-n2c(SCCN3CCOCC3)nnc2[C@H](Cc2ccccc2)NC(=O)Cc2c(C)[nH]c3ccccc23)cc1,MT-4,,,81.9 ± 28.2
Nc1ccn([C@@H]2O[C@H](CO)[C@@H](O)[C@H]2F)c(=O)n1,MOLT-4,sulforhodamine B,"11 days, galactose medium",4.5
COc1cc(O)cc(O)c1C(=O)/C=C/c1ccccc1,MT2,"cell growth or viability, ATP luminescence",48 h,> 100
COc1ccc(-n2c(SCCF)nnc2[C@H](Cc2ccccc2)NC(=O)Cc2c(C)[nH]c3ccccc23)cc1,MT-4,,,25 ± 1.45
CCN(Cc1cccc(S(=O)(=O)O)c1)c1ccc(C(=C2C=CC(=[N+](CC)Cc3cccc(S(=O)(=O)[O-])c3)C=C2)c2ccccc2)cc1,MT2,,3 days,190 ± 14.4
CCOC(=O)c1c(C(=O)OC)cn(CC(c2cn(C)c3ccccc23)c2cn(C)c3ccccc23)c1C,DH82,"cell growth or viability, MTS",72 h,> 200
Nc1ncnc2c1ncn2[C@@H]1O[C@H](CO)[C@@H](O)[C@H]1F,MOLT-4,sulforhodamine B,"11 days, galactose medium",111
COc1ccc(S(=O)(=O)O)cc1N=Nc1c(S(=O)(=O)O)cc2cc(NCc3nc(CNc4cc(C)c(N=Nc5cc(S(=O)(=O)O)cc6cc(S(=O)(=O)O)cc(O)c56)cc4OC)nc(Nc4ccccc4)n3)ccc2c1O,U87.CD4.R5.X4,,3 days,515 ± 6
COc1cc(/C=C/C(=O)N2CCN(c3ccccc3)CC2)ccc1O,L929,"cell growth or viability, MTT",48 h,> 200
COc1ccc(-n2c(SCCCN3CCOCC3)nnc2[C@H](Cc2ccccc2)NC(=O)Cc2c(C)[nH]c3ccccc23)cc1,MT-4,,,48.5 ± 19.9
Cc1nc([C@@H](NC(=O)c2ccc(-c3ccc(Cl)cc3)[nH]2)[C@@H]2CCCCN2)sc1CO,U87/CD4/CCR5,"cell growth or viability, XTT",,~24
O=c1ccn([C@@H]2O[C@H](CO)[C@@H](O)[C@H]2F)c(=O)[nH]1,MOLT-4,sulforhodamine B,"11 days, galactose medium",> 250
O=[N+]([O-])/C=C/c1ccc(Br)o1,KB,"cell viability, alamarBlue","72 h, 10% FCS",6 ± 2.6
COc1ccc(-n2c(SCCN(C)C)nnc2[C@H](Cc2ccccc2)NC(=O)Cc2c(C)[nH]c3ccccc23)cc1,MT-4,,,22.9 ± 0.38
C/C(=C\c1ccco1)[N+](=O)[O-],KB,"cell viability, alamarBlue","72 h, 10% FCS",25.4 ± 3.8
OC[C@H]1O[C@@H](n2cnc3c(O)ncnc32)[C@H](F)[C@@H]1O,MOLT-4,"cell growth or viability, SRB",11 days,> 250
COc1ccc(-n2c(SCc3cccnc3)nnc2[C@H](Cc2ccccc2)NC(=O)Cc2c(C)[nH]c3ccccc23)cc1,MT-4,,,24.2 ± 2.28

# A few entries again:
SMILES,cell line,assay,setting,CC50 [µM]
Cc1nc([C@@H](NC(=O)c2ccc(-c3ccc(Cl)cc3)[nH]2)[C@@H]2CCCCN2)sc1CO,U87/CD4/CCR5,"cell growth or viability, XTT",,~24
O=c1ccn([C@@H]2O[C@H](CO)[C@@H](O)[C@H]2F)c(=O)[nH]1,MOLT-4,sulforhodamine B,"11 days, galactose medium",> 250
